Published values of several laboratories.
Numbered parts are unrelated; each lists some results of a single study. Changes are numbered by the printed parent chain.

Series 1 — technique: aptamer microarray, sandwich; form: DNA with 2'F-ANA; matrix: in vitro; concentration: 200 nM; together with: Cy3 exosite-II aptamer, 400 nM; direction: higher = stronger binding; quantity: mean fluorescence intensity; sequence: GGTTGGTGTGGTTGG
Target: Prothrombin, mature alpha-thrombin (F2, Homo sapiens, UniProt P00734)
Notes: whole 15-mer aptamer, many near background
2'F-ANA at 3 4 6 7 8 9 10: 286 a.u.
2'F-ANA at 2 4 5 6 8 9 10 12 13 14 15: 47.1 a.u.
2'F-ANA at 1 3 4 6 7 11 13 15: 127 a.u.
2'F-ANA at 1 3 4 5 6 7 9 11 13 14: 48.3 a.u.
2'F-ANA at 2 5 7 8 9 10 11 13 14 15: 47.1 a.u.
2'F-ANA at 2 3 4 5 6 8 9 10 11 12: 51.3 a.u.
2'F-ANA at 4 5 7 8 10 11 12 14: 46.4 a.u.
2'F-ANA at 2 5 6 7 8 9 10 11 13: 49.4 a.u.
2'F-ANA at 1 2 3 5 6 8 11 13 14 15: 58.5 a.u.
2'F-ANA at 1 2 6 8 10: 61.1 a.u.
2'F-ANA at 1 3 6 8 9 10 11 12 14: 61.2 a.u.
2'F-ANA at 1 4 7 10 11 13 15: 46.9 a.u.
2'F-ANA at 2 5 11 15: 61.9 a.u.
2'F-ANA at 1 2 8 9 10 15: 86.8 a.u.
2'F-ANA at 1 2 4 12 13 15: 204 a.u.
2'F-ANA at 1 2 3 5 6 8 9 12 13 14 15: 93.7 a.u.
2'F-ANA at 2 3 5 8 9 12 13 14: 203 a.u.
2'F-ANA at 1 5 6 7 10: 44 a.u.

Series 2 — target: NFIL3, bZIP domain (human); technique: DHFR protein complementation; matrix: yeast; baseline: wild-type JUN-FOS pair; direction: higher = stronger binding; quantity: binding fitness
Notes: single substitutions, most at no-binding floor
Starting sequence: JUN, bZIP domain (human); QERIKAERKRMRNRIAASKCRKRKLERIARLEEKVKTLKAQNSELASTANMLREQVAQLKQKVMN; partner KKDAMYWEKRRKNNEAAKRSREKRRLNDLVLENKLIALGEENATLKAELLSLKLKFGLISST
S43I: -1.55 natural log
A49Q: -1.35 natural log
I28M: -1.18 natural log
L38E: -1.43 natural log
Q41N: -1.51 natural log
S47G: -1.42 natural log
A40G: -1.39 natural log
N42L: -1.45 natural log
L31M: -1.25 natural log
E32A: -1.34 natural log
L45N: -1.52 natural log
R30G: -1.33 natural log
A29M: -1.32 natural log
Q41I: -1.27 natural log
A57M: -1.28 natural log
Q55K: -1.57 natural log
A46V: -1.48 natural log
A49P: -1.48 natural log
R30K: -1.43 natural log
S43K: -1.19 natural log
A40L: -1.33 natural log
S43G: -1.41 natural log
Q41E: -1.55 natural log
N42Q: -1.47 natural log
N42C: -1.47 natural log

Series 3 — technique: protein binding microarray; form: double-stranded DNA, one strand shown; matrix: in vitro; concentration: not given; baseline: not given; direction: higher = stronger binding; quantity: E-score
Target: Histone acetyltransferase KAT6A, winged helix 1, GST fusion (KAT6A, Homo sapiens, UniProt Q92794, residues 1-85)
Notes: 8-mer, flanks averaged, mean of 2 arrays, mostly near background
Residues (chain): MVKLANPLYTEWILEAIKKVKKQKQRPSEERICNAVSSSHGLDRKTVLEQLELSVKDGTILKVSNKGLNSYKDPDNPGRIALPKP
CATCGGGG: 0.0877
TCAGAGAA: -0.177
CACATGTA: -0.182
GAATAAGA: -0.227
CCCCTTTC: -0.0381
ACATAGAT: -0.0828
TCATAGAA: -0.133
ATAAGATA: -0.0862
AAATCACC: 0.0163
GCCATAAA: -0.0922
ACATCTCC: -0.0954
CCCTCACG: -0.0927
ACAAAGCA: -0.0362
AACTCGTG: -0.134
CCCAAGGG: -0.0762
CCTTTCCC: 0.0771
CAAGTTGG: -0.177
ACAATACA: -0.122
ACGCTTTC: 0.111
ATTCGCGA: 0.00813

Series 4 — technique: competition protein-binding microarray; form: double-stranded DNA, one strand shown; matrix: in vitro; concentration: 2 µM; together with: Pho4 competitor, 0.05 µM; direction: higher = stronger binding; quantity: fluorescence intensity; constant ends, left off below: … GTCTTGATTCGCTTGACGCTGCTG
Target: Centromere-binding protein 1, full length, His-tagged (CBF1, Saccharomyces cerevisiae, UniProt P17106, residues 1-351)
UniProt P17106, sequence (whole entry, looked up): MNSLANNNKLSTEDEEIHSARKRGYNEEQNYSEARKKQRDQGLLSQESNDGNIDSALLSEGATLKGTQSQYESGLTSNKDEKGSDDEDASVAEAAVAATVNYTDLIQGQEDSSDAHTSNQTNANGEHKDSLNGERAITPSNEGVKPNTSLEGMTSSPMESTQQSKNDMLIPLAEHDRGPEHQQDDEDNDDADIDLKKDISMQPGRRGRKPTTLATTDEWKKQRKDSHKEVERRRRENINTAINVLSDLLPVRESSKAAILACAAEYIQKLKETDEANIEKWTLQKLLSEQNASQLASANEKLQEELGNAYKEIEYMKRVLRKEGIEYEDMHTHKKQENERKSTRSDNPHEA
Notes: whole 60-bp probe, lowest competitor level
AACGAACCCGCAAGACGCGTGCAAAGCTGGTTAGAT: 67.7 a.u.
CTTTCCCGATCTTGCCACGTGTTTTTAGCACATTTG: 1200 a.u.
ATCTGGAAACTCCGACGCGTGAGGCCTCGCGTCGCT: 69.1 a.u.
CGTCACCAGCGTCACCACGGGGACCCGCCCCGAAAT: 69.9 a.u.
TCTTCAGCCTTGCCCAACGTGGAGTCGACTACGCCC: 62.2 a.u.
TCAAAATTGAACGGCCACGTTGAGGGACCGTTGTCA: 75.5 a.u.
TGTTAATATACCGACATCGTGTTTTGGGGAATGGGT: 77.2 a.u.
TGGTCTCAGTGCTGGCACCTGACGAACTATTCGTAG: 254 a.u.
TGGAAGTATTTTACCCACGTATGGCAGGCAAGAACG: 71.3 a.u.
CGTCCTAGTGATTGCACCGTGGGTGCCATGAGGAAG: 75.2 a.u.
AAATTACTAAGTTGGGCAGTGGGTGACGCCGTATGA: 60.1 a.u.
TTCGCCGATTCTAATCATGTGACGCCTTTTCCCCAG: 2140 a.u.
GAAGTCGGTTCATTGCATGTGCTGTTACACTTCTTA: 93.3 a.u.
AAAGCGGTAATTTGACCAGTGGGTGCAGATATCTAT: 64.1 a.u.
CTCTTCCTGAATTTGCACGGGGAACCAAGGCCTATC: 85.4 a.u.
CTAACGAAGGTTTTTCACGTGTTTTACAAGCCAAGT: 945 a.u.

Series 5 — technique: RNA Bind-n-Seq; form: RNA; matrix: in vitro; concentration: not given; baseline: input RNA pool; direction: higher = stronger binding; quantity: bound/input enrichment
Target: RING finger protein unkempt homolog, zinc fingers 1-6, GST-SBP tag (UNK, Homo sapiens, UniProt Q9C0B0, residues 30-357)
Notes: RNA with constant flanks, human-mouse chimeric sites, ends assumed
Constant ends, left off below: GGGAGUUCUACAGUCCGACGAUC … CAACAGAGGAUUGAGCAUCA
Target sequence (chain): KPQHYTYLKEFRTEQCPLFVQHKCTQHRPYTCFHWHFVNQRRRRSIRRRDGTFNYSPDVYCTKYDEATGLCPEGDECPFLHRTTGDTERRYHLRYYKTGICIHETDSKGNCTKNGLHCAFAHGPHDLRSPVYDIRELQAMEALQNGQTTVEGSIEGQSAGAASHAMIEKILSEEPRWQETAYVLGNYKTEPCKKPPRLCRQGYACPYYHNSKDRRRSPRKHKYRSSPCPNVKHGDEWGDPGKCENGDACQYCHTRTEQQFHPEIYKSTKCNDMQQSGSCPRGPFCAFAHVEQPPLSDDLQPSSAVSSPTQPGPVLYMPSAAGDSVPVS
UAAAUUAGGGCUGCCGUUUUCUGUUUCGCCCUGAGCUGCGGAAAGCCAGAAGAUUUUAUCUAGCUUAUACAAGGCUGCUGGUGUUCCCUCUUUUUUUCCACGAGGGUUUUUUUUCCAGCA: 0.488 ratio
UUUGUUUUUAUGCUAAGCACACGUGCUGGUGGUCUGGGCAUCAAUCUUGCAACUGCUGAUGUAGUCAUUUUAUAUGACUCAGAUUGGAAUCCCCAAGUUGAUCUUCAGGCUAUGGACCGU: 0.149 ratio
GAGCGUCUUGCCCGCACCGGGAUCAUAGUGACCACUAGUGAGGCUGUUCUGCUUCAGCUGGUGGCUGACAAAGACCACCCGAAGUUCAAGGAAAUUCAGAACCUAAUUAAGGCGAGUGCC: 0.0982 ratio
CAGUCCCGCGACAGCGUUGCAGGACGAUGUGAACAAAAACUCAAAGCGGACCCUCUAUUGUAGUUCUUGAUUCUCGAGUGCCAUUAUUAUUGUUUGUCUUUUUUUUUUUUUUUUUAAAGA: 1.22 ratio
UGUAACUCUUAUCUGUAAAAGGUUUCUCCCCUACUGUCAAAAAAUAUGCAUGUAUAGUAAUUAGGACUUCAUUCCUCCAUGUUUUCUUCCCUUAUCUUACUGUCAUUGUCCUUAAACCUU: 1.38 ratio
UGUGCAUAUGAUGCUUGAGAUGGUUUUUGCAGAUGCAGAAAUCGCUGCAAGGUAAUCACAAUAGAUAAAAGUGGUAUUUUAAACCUUUGAAAUAAAUGGAUGUAACUGUACCUUGGUACA: 0.574 ratio
AAUUUCCUGUCAUACUUUGUAGCAAGACACAUCAGACUUACAGAGCACCUGGCCACAUUCUAGGUUUGUGUUAUUUCUCAGCUAUGGAUAUGAUCAAAUGAGAACACUGCUUAACUAAUG: 0.162 ratio
AACAGAUUGUCUUUAAGCAUUCCAAGCAAUGCUUGGGGGGUGAUCAUUGUUGCCCAUGUGCCUUCUGACUGAGCUUUUAAUUAAUUGCAUGUUACAUCUUUCCUUCACUCCAGAAUUGUU: 0.25 ratio
CGCUGGCCCAAGCUGAUGGACUCUGAUGGCCUCCAUCUCUCAGGCACGUGUGCCUUCUCUUAGUCCCUGUUUUCGGGUCACAAAGCUCAGUAUCAUGGUGGUUUGAAAGCACCAGCUUUG: 0.115 ratio
ACACAAUAUGAGACCAACAGCUUGGACUUCAAAGUUGGGGCGGAUGGGACAGUCUUCGCCACCCGGGAGCUGCAGGUCCCCUCCGAGCAGGUGGCGUUCACGGUGACUGCAUGGGACAGC: 0.386 ratio
UGACAAGGGCACUGCAGAGCCAUGCCUUUCCUUGACAUACAGAAAAAGCUGGGCAUCAGCCUGGACCGGCACUUUAUGUUCCUAAGCGCAGAACAGCCCUACAAGAUGGCUGGUCGAUGC: 0.0784 ratio

Some of these lines once more (series 5):
ACACAAUAUGAGACCAACAGCUUGGACUUCAAAGUUGGGGCGGAUGGGACAGUCUUCGCCACCCGGGAGCUGCAGGUCCCCUCCGAGCAGGUGGCGUUCACGGUGACUGCAUGGGACAGC: 0.386 ratio
AACAGAUUGUCUUUAAGCAUUCCAAGCAAUGCUUGGGGGGUGAUCAUUGUUGCCCAUGUGCCUUCUGACUGAGCUUUUAAUUAAUUGCAUGUUACAUCUUUCCUUCACUCCAGAAUUGUU: 0.25 ratio
AAUUUCCUGUCAUACUUUGUAGCAAGACACAUCAGACUUACAGAGCACCUGGCCACAUUCUAGGUUUGUGUUAUUUCUCAGCUAUGGAUAUGAUCAAAUGAGAACACUGCUUAACUAAUG: 0.162 ratio
GAGCGUCUUGCCCGCACCGGGAUCAUAGUGACCACUAGUGAGGCUGUUCUGCUUCAGCUGGUGGCUGACAAAGACCACCCGAAGUUCAAGGAAAUUCAGAACCUAAUUAAGGCGAGUGCC: 0.0982 ratio
UGUAACUCUUAUCUGUAAAAGGUUUCUCCCCUACUGUCAAAAAAUAUGCAUGUAUAGUAAUUAGGACUUCAUUCCUCCAUGUUUUCUUCCCUUAUCUUACUGUCAUUGUCCUUAAACCUU: 1.38 ratio
UGUGCAUAUGAUGCUUGAGAUGGUUUUUGCAGAUGCAGAAAUCGCUGCAAGGUAAUCACAAUAGAUAAAAGUGGUAUUUUAAACCUUUGAAAUAAAUGGAUGUAACUGUACCUUGGUACA: 0.574 ratio
UUUGUUUUUAUGCUAAGCACACGUGCUGGUGGUCUGGGCAUCAAUCUUGCAACUGCUGAUGUAGUCAUUUUAUAUGACUCAGAUUGGAAUCCCCAAGUUGAUCUUCAGGCUAUGGACCGU: 0.149 ratio
CGCUGGCCCAAGCUGAUGGACUCUGAUGGCCUCCAUCUCUCAGGCACGUGUGCCUUCUCUUAGUCCCUGUUUUCGGGUCACAAAGCUCAGUAUCAUGGUGGUUUGAAAGCACCAGCUUUG: 0.115 ratio
CAGUCCCGCGACAGCGUUGCAGGACGAUGUGAACAAAAACUCAAAGCGGACCCUCUAUUGUAGUUCUUGAUUCUCGAGUGCCAUUAUUAUUGUUUGUCUUUUUUUUUUUUUUUUUAAAGA: 1.22 ratio
